Measurements from different studies.
Each line is one published result; not all experiments were run side by side. ± marks the error that the study gave.

Compound	system	conditions	AUC
O=C1CC[C@@]2(O)[C@H]3Cc4ccc(O)c5c4[C@@]2(CCN3CC2CC2)[C@H]1O5	hairless guinea pig, plasma	topical, 0.5 mL of 16% gel	259 ± 179 ng·h/mL
O=C1CCc2ccc(OCCCCN3CCN(c4cccc(Cl)c4Cl)CC3)cc2N1	healthy Japanese men, CYP2D6 EM, plasma	oral, 3 mg aripiprazole single, together with: fluvoxamine 100 mg/day	1530 ± 289 ng·h/mL
O=C(CCCCCCC(=O)Nc1ccccc1)NO	cancer patients, serum	oral, 400 mg, cycle 1 day 2, AUC 0-7 h, together with: flavopiridol 30 to 30 mg/m^2	11.1 µM·h
CC(C(=O)O)c1ccc(-c2ccccc2)c(F)c1 (centres unmarked)	healthy volunteers, plasma	oral, 100 mg, geometric mean, together with: control beverage 250 mL	56800 ng·h/mL
COc1cc2c(cc1OC)CN(CCc1ccc(NC(=O)c3cc(OC)c(OC)cc3NC(=O)c3cnc4ccccc4c3)cc1)CC2	human, plasma	intravenous infusion, 8 mg/kg, up to 24 h after infusion end	23600 ng·h/mL
Nc1nc(NC2CC2)c2ncn([C@H]3C=C[C@@H](CO)C3)c2n1	HIV-infected children and adolescents, Tanner stage 1-2, plasma	oral, 8 mg/kg, 0 to 8 h	8000 ng·h/mL
Cn1cnc2c(F)c(Nc3ccc(Br)cc3Cl)c(C(=O)NOCCO)cc21	healthy subjects, plasma	oral, 50 mg single dose	2620 ng·h/mL
CN1CCN(c2ccc3nc(-c4c(N)c5c(F)cccc5[nH]c4=O)[nH]c3c2)CC1	patients, plasma	oral, 300 mg daily 5 days on 2 off, day 19, AUC 0-24 h maximum, together with: gemcitabine and capecitabine	4260 ng·h/mL

For quick reference, copied from above:
Compound	system	conditions	AUC
Cn1cnc2c(F)c(Nc3ccc(Br)cc3Cl)c(C(=O)NOCCO)cc21	healthy subjects, plasma	oral, 50 mg single dose	2620 ng·h/mL
